Measured values of several laboratories.
Numbered parts are unrelated; each lists some results of a single study.

Series 1
Target: RNA binding protein fox-1 homolog 2, RRM domain, GST-SBP tag (RBFOX2, Homo sapiens, UniProt O43251-10, residues 100-194)
Technique: RNA Bind-n-Seq
Form: RNA
Sample: in vitro
Tested at: 365 nM
Setting: natural RNA segment, single round, ends assumed
Relative to: no-protein control
Reading: higher = stronger binding
Endpoint: RBNS enrichment (R)
Target sequence (chain): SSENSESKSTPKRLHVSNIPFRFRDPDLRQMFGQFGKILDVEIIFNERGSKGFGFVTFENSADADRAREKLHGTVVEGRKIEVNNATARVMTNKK
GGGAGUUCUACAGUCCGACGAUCUCCUAACUAAAGAGAUGGGAGUUCACCUGAGGGCAAGAAGUACCCAGGAUGCCCAAACAGCCGCACAGGUGUCCUGUGCUUCCUGUGAGACUUCCUGGGGGAAAUAUACAUGGAAUUCUCGGGUGCCAA: 0.409
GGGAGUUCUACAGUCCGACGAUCUGGCUCUCAGCAGCUUCCCUGCAGCGCCACUGGGCUAAGGGGGAGCGGCCAUUUAUGUUCAUGUUCACAGGAAGGUCUUCUGCUGCUCCAUCCUAGACCUGCCCCAGUGCUGGAAUUCUCGGGUGCCAA: 0.378
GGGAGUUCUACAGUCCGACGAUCCACUGUUGUGGUCACAGCAGUGCCCUUGGACAGGGCAUUAAGGCUGACCCUGAAGGAGUGGUGCUGCCAGGCCUGUCCUGGCUUUCUGGGGUGUGCUGGGAGGAUUACCAUGGAAUUCUCGGGUGCCAA: 0.391
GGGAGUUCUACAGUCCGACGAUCCAAAGGGCAACUGGCCUUCUGACCCACUAGAGCCUUGCAAAGAGUUGGCAGUCAGGGGGGUGUCAUACAUGAUUCUUGCCUUUUCCUUUGCUUGAUGUCUAUACUGGAUCUGGAAUUCUCGGGUGCCAA: 1.07
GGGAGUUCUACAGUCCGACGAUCUGUUUAACAUGGAGUCUCACUCUAGUCCAGACUGGCCUCAAGCUCAUGGUUAACUCUCCUGCUAUAACCUCCUGGGUUACAGUCAUACAUUACGGUGCCCAGAUUCAAAAUGGAAUUCUCGGGUGCCAA: 0.179

Series 2
Target: Prothrombin, mature alpha-thrombin (F2, Homo sapiens, UniProt P00734)
Technique: aptamer microarray, sandwich
Form: DNA with 2'F-ANA
Sample: in vitro
Tested at: 200 nM
Setting: whole 15-mer aptamer, many near background
With: Cy3 exosite-II aptamer, 400 nM
Reading: higher = stronger binding
Endpoint: mean fluorescence intensity
Strand: GGTTGGTGTGGTTGG
2'F-ANA at 2 4 5 6 8 13 14 15: 47.7 a.u.
2'F-ANA at 2 3 9 15: 760 a.u.
2'F-ANA at 3 4 12 13 14 15: 324 a.u.
2'F-ANA at 2 4 8 9 12 14: 155 a.u.
2'F-ANA at 3 5 8 9 11 12 13 14 15: 91 a.u.

Series 3
Target: RING finger protein unkempt homolog, zinc fingers 1-6, GST-SBP tag (UNK, Homo sapiens, UniProt Q9C0B0, residues 30-357)
Sequence of UniProt Q9C0B0 (30-357, looked up): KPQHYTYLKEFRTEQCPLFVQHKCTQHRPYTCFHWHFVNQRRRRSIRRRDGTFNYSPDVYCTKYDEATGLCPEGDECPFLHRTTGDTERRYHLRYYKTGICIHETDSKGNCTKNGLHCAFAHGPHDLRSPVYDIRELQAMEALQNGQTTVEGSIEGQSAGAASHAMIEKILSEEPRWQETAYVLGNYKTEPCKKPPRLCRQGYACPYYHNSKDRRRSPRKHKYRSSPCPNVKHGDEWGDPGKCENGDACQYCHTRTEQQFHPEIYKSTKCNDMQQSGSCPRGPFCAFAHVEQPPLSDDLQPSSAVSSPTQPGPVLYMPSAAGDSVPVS
Technique: RNA Bind-n-Seq
Form: RNA
Sample: in vitro
Tested at: not given
Setting: RNA with constant flanks, human and mouse sites, ends assumed
Relative to: input RNA pool
Reading: higher = stronger binding
Endpoint: bound/input enrichment
GGGAGUUCUACAGUCCGACGAUCUGCAGCCGAGCGGGCCCGUUCCGCCGGAGCUGAGGACCAGGUAUUCAAAUAAAGUUAAUUGCAGCUUUCUGUGAAAAUGUCAGUUUUGAUAUCACAGAGCGUCAUAAAUUAUGUAGAGGACAACAGAGGAUUGAGCAUCA: 0.285 ratio
GGGAGUUCUACAGUCCGACGAUCUGUGUGUGUCAGACACUUGGCAUUUCACCUGAAGAAAAAUUUGUUAUUACAACAACAAGUAGGAAAGAAAUUACCUGUGAUAAUUUUGAUGAAACUGUUAAAGAUGGAGUCACCUUAUACCAACAGAGGAUUGAGCAUCA: 0.234 ratio
GGGAGUUCUACAGUCCGACGAUCGCACAGCAGUUGUACAGCAGGGGUCCUCCUGCCCCUCAUAUUGUGGGAUCCACUCUAGGAUCUUUCCAAGGUGCUGCAUCGUCAGCAUCCCAUUUGCAUACGAGUGCCUCCCAACCAUACCAACAGAGGAUUGAGCAUCA: 0.171 ratio
GGGAGUUCUACAGUCCGACGAUCCUCACGGACUGGACGAUCUUUCCACUGGACACUGAGGAUGCAGUGUGCAGCCACCUGGGGGGCUGGGGACACCGUGACAGUGGCCACCAUGAUGAAGCCUGGGCCCACAACUCAUCCAACCAACAGAGGAUUGAGCAUCA: 0.151 ratio

Mixed results
PhoQ, residues 284 288 289 292 302 303 GANMMA  fold induction (PhoP, residues 12 14 15 18 19 NMSFL (Escherichia coli, UniProt P23836); Sort-seq, measured: YFP reporter; E. coli; PhoQ-PhoP variant library, with: 10 µM Mg2+; relative to: high Mg2+ state, higher = stronger signaling): 2.53
